{"data": "Experimental data of several laboratories", "note": "Every numbered part comes from another study and shows a few of its results, in no order."}
{"data": "Study 1", "target": "Phosphate system positive regulatory protein PHO4, full length, GST-tagged (PHO4, Saccharomyces cerevisiae, UniProt P07270, residues 1-312)", "technique": "competition protein-binding microarray", "molecule type": "double-stranded DNA, one strand shown", "medium": "in vitro", "concentration": "2 µM", "notes": "whole 60-bp probe, lowest competitor level", "together with": "Cbf1 competitor, 0.05 µM", "direction": "higher = stronger binding", "constant ends, left off below": "… GTCTTGATTCGCTTGACGCTGCTG", "Construct (chain)": "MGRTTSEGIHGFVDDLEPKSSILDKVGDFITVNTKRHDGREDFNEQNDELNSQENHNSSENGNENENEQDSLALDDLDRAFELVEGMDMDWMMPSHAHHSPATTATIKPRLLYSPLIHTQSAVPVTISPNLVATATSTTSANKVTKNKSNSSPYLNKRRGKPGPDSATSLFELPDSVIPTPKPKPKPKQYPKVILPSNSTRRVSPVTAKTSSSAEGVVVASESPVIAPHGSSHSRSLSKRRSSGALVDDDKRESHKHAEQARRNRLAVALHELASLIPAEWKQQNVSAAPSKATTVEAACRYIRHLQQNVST"}
{"Oligonucleotide": "AAATTACTAAGTTGGTATGTGGGTGACGCCGTATGA", "fluorescence intensity": "4760 a.u."}
{"Oligonucleotide": "CATACCCAACCTTGTCACCAAACTTAAGATATTTGT", "fluorescence intensity": "3280 a.u."}
{"Oligonucleotide": "CAATACCAGGACCTTTACGTGCAAATTTAGAGCGAA", "fluorescence intensity": "3970 a.u."}
{"Oligonucleotide": "CTTTCCCGATCTTGATATGTGGGTGTAGCACATTTG", "fluorescence intensity": "4980 a.u."}
{"Oligonucleotide": "CATGCTATGATGCCCACTGTGATATCCAGAGCAAAG", "fluorescence intensity": "4570 a.u."}
{"Oligonucleotide": "ACCCTGCCCTCATATCACCTGCGTTTCCGTTAAACT", "fluorescence intensity": "5420 a.u."}
{"Oligonucleotide": "GGTTTACGTCAGGGTCCTTTGGCGGGTGGTGGTTCA", "fluorescence intensity": "5010 a.u."}
{"Oligonucleotide": "TACTTTAAAGATATACACGCACGGAAATGGTTCCAA", "fluorescence intensity": "7220 a.u."}
{"data": "Study 2", "target": "Prothrombin, mature alpha-thrombin (F2, Homo sapiens, UniProt P00734)", "technique": "aptamer microarray, sandwich", "molecule type": "DNA with 2'F-ANA", "medium": "in vitro", "concentration": "200 nM", "notes": "whole 15-mer aptamer, many near background", "together with": "Cy3 exosite-II aptamer, 400 nM", "direction": "higher = stronger binding", "oligonucleotide": "GGTTGGTGTGGTTGG"}
{"Modification": "2'F-ANA at 1 5 6 8 10 12", "mean fluorescence intensity [a.u.]": 51.3}
{"Modification": "2'F-ANA at 1 4 6 8 9 10 11 13 14", "mean fluorescence intensity [a.u.]": 46}
{"Modification": "2'F-ANA at 2 5 10 14 15", "mean fluorescence intensity [a.u.]": 43.5}
{"Modification": "2'F-ANA at 1 4 5 9 12 15", "mean fluorescence intensity [a.u.]": 103}
{"Modification": "2'F-ANA at 1 2 3 4 6 7 8 9 10 11 12 13 14", "mean fluorescence intensity [a.u.]": 158}
{"Modification": "2'F-ANA at 7 8 9 10 11 12", "mean fluorescence intensity [a.u.]": 229}
{"Modification": "2'F-ANA at 3 4 7 15", "mean fluorescence intensity [a.u.]": 869}
{"Modification": "2'F-ANA at 2 4 7 8 9 12 13 14 15", "mean fluorescence intensity [a.u.]": 118}
{"data": "Study 3", "target": "PABPC1L2, full length, GST fusion (mouse, UniProt A0ABA7IW68)", "technique": "RNAcompete", "molecule type": "RNA", "medium": "in vitro", "concentration": "20 nM", "notes": "7-mer, probes averaged, single round", "reference": "mean of 7-mers", "direction": "higher = stronger binding", "Target sequence (chain)": "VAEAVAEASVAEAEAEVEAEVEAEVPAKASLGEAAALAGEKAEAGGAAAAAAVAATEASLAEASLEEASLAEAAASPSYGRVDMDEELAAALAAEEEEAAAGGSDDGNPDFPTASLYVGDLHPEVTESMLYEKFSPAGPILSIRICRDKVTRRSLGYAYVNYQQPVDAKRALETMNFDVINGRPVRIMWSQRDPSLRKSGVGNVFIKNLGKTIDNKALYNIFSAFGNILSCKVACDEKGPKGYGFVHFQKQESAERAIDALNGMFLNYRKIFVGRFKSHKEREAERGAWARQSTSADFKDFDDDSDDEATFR"}
{"Oligonucleotide": "CCUUUCC", "7-mer Z-score": -0.387}
{"Oligonucleotide": "CACAACU", "7-mer Z-score": -0.13}
{"Oligonucleotide": "UCUGUUA", "7-mer Z-score": -0.393}
{"Oligonucleotide": "GCCUAUA", "7-mer Z-score": -0.133}
{"Oligonucleotide": "UGAGAAU", "7-mer Z-score": 0.0442}
{"Oligonucleotide": "AAAUCAC", "7-mer Z-score": 0.856}
{"Oligonucleotide": "GGCGGGA", "7-mer Z-score": 0.461}
{"Oligonucleotide": "GUAAAAG", "7-mer Z-score": 1.56}
{"data": "Other studies, line by line"}
{"Molecule": "LAIVTTPLV", "target": "HLA class I histocompatibility antigen, A alpha chain, allele A*80:01 (Homo sapiens, UniProt P04439)", "test": "peptide-MHC binding", "system": "peptide", "conditions": "concentration not given", "quantity": "binding", "value": "inactive"}
{"note": "For quick reference, copied from above (study 1):"}
{"Oligonucleotide": "CAATACCAGGACCTTTACGTGCAAATTTAGAGCGAA", "fluorescence intensity": "3970 a.u."}
{"Oligonucleotide": "TACTTTAAAGATATACACGCACGGAAATGGTTCCAA", "fluorescence intensity": "7220 a.u."}
{"Oligonucleotide": "GGTTTACGTCAGGGTCCTTTGGCGGGTGGTGGTTCA", "fluorescence intensity": "5010 a.u."}
